Results collected from several papers.
Lines come from different studies, so protocols differ. “And” joins repeats or separate records; there may be more than shown. ± gives the spread as reported.

Structure (SMILES)	test	system	setting	scale	endpoint	value
Cc1cccc(Cn2nc(C3CC3)c3c(NC(=O)c4cnc5cc(OCCN6CCN(C)CC6)ccn45)cccc32)n1	item: Lipase increased	human advanced solid tumours	oral, dose not given, all-causality,, all doses	–	adverse events incidence	31.6%
CO[C@H]1C[C@@H]2CC[C@@H](C)[C@@](O)(O2)C(=O)C(=O)N2CCCC[C@H]2C(=O)O[C@H]([C@H](C)C[C@@H]2CC[C@@H](OC(=O)NCCOCCOCCOCCOCCOCCOCCOCCOCCC(=O)N3CCc4cc(Cn5nc(-c6ccc7oc(N)nc7c6)c6c(N)ncnc65)ccc4C3)[C@H](OC)C2)C[C@@H](O)[C@H](C)/C=C(\C)[C@@H](O)[C@@H](OC)C(=O)[C@H](C)C[C@H](C)/C=C/C=C/C=C/1C	–	patients with advanced solid tumours	intravenous, 1.6 mg/3 mg weekly, any grade	–	incidence of Dyspnea TEAE	0%
CC(C)C[C@H](NC(=O)[C@H](CCCCN)NC(=O)OCC1c2ccccc2-c2ccccc21)C(=O)N[C@H](C(=O)N[C@@H](Cc1ccccc1)C(=O)N[C@@H](Cc1ccccc1)C(=O)N[C@@H](CCCCN)C(=O)NCC(=O)N[C@@H](Cc1ccccc1)C(=O)N[C@@H](C)C(=O)N[C@@H](Cc1c[nH]c2ccccc12)C(=O)N[C@@H](CC(N)=O)C(=O)N[C@H](C(=O)N[C@H]1CSSC[C@@H](C(=O)N[C@@H](Cc2c[nH]cn2)C(=O)N[C@@H](CCCNC(=N)N)C(=O)N[C@@H](CCCNC(=N)N)C(=O)N[C@@H](C)C(=O)N[C@@H](CC(N)=O)C(N)=O)NC(=O)[C@H](C(C)C)NC(=O)[C@H](CCCNC(=N)N)NC(=O)[C@H](C(C)C)NC(=O)CNC(=O)[C@H](CC(N)=O)NC(=O)[C@H](CCCNC(=N)N)NC(=O)[C@H](Cc2ccc(O)cc2)NC(=O)[C@H](C(C)C)NC1=O)C(C)C)C(C)C	HPLC	mouse kidney homogenate	2560 µM, 4.00 h, 37 °C, 50 mg/mL tissue	–	remaining peptide	69.2% and 70.1% and 73.7%
CC(C)NCCCC[C@@H]1NC(=O)[C@H](Cc2ccc(O)cc2)NC(=O)[C@H](Cc2ccccc2)NC(=O)CC[C@H](C(=O)N[C@@H](CCCCNC(C)C)C(=O)N[C@@H](CCCCNC(=O)[C@H](CCC(=O)O)NC(=O)[C@H](CCC(=O)O)NC(=O)[C@H](CCC(=O)O)NC(=O)CN2CCN(CC(=O)O)CCN(CC(=O)O)CC2)C(N)=O)NC(=O)CNC(=O)[C@H](Cc2ccc3ccccc3c2)NC(=O)[C@@H](CCCNC(=N)N)NC1=O [fluorine-18 labelled]	–	mouse, plasma	75 min, post injection	–	intact parent fraction	94 ± 1.89%
NCCCC[C@@H]1NC(=O)[C@@H](Cc2c[nH]c3ccccc23)NC(=O)[C@H](c2ccccc2)NC(=O)[C@@H]2C[C@@H](OC(=O)NCCN)CN2C(=O)[C@H](Cc2ccccc2)NC(=O)[C@H](Cc2ccc(OCc3ccccc3)cc2)NC1=O	–	healthy human volunteers	1950 µg twice daily	–	subjects with adverse event Flatulence	8%
C[C@@H]1OC(=O)NN=C1c1ccc(-c2ccc(F)cc2)c(C(F)(F)F)c1	phase I trial, item: Cough worst grade 1	human patients	5 mg once daily	–	patients with adverse event	0%
COC(=O)C1=CCCN(C)C1	–	nude mice	intraperitoneal, 4 weeks	–	tolerated dose	≤ 50 mg/kg/day
CCN1[C@@H](C(=O)NC23CCC(C(=O)O)(CC2)CC3)[C@H](c2cccc(Cl)c2F)[C@]2(C(=O)Nc3cc(Cl)ccc32)C12CCCCC2	–	patients with advanced solid tumours	oral, 150 mg	–	Neutropenia incidence	62.5%
O=c1ccc2ncc(=O)n3c2n1C[C@H]3CN1CCC(NCc2cc3c(cn2)OCCC3)CC1	–	healthy human volunteers, urine	oral, 1500 mg, arithmetic mean, alone	–	AUC(0-24)	3870 µg·h/mL
OC[C@H]1OC(O)[C@H]([18F])[C@@H](O)[C@@H]1O (some centres unmarked)	PET/CT, bi-exponential fit	Sprague-Dawley rat, nasal cavity	intranasal	reference: dose	nasal clearance amplitude A	16.3%
O=S(=O)(Nc1ccccc1)c1ccc(NC(=S)Nc2ccccc2)cc1	item: CHOL	female mouse, blood	oral, 20 mg/kg daily, 14 days	–	blood chemistry level	139 mg/dL
CC[C@H](C)[C@@H]1NC(=O)[C@@H]2CCCN2C(=O)[C@H](CC(C)C)NC(=O)[C@H](CC(C)C)NC(=O)CNC(=O)[C@@H](NC(=O)[C@@H](NC(=O)[C@H](CC(=O)O)NC(=O)CNC(=O)[C@@H](NC(=O)[C@H](C)NC(=O)CNC(=O)[C@H](CCCCN)NC(=O)[C@H](CC(C)C)NC(=O)[C@H](CC(C)C)NC(=O)[C@H](CCCCN)NC(=O)CNC(=O)[C@@H](NC(=O)[C@@H](N)CC(C)C)C(C)C)C(C)C)C(C)C)CSSC[C@@H](C(=O)O)NC1=O	–	female C57BL/6 mice, plasma	intravenous, 10 mg/kg, two-compartment model	–	distribution half-life	8.4 ± 1.2 min
CC[C@H](C)[C@H](NC(=O)[C@H](Cc1ccccc1)NC(=O)[C@H](CCC(=O)O)NC(=O)[C@H](CCCNC(=N)N)NC(=O)[C@H](C)NC(=O)[C@H](C)NC(=O)[C@H](CCC(N)=O)NC(=O)[C@H](CCC(=O)O)NC(=O)[C@H](CCC(=O)O)NC(=O)[C@H](CC(C)C)NC(=O)[C@H](Cc1ccc(O)cc1)NC(=O)[C@H](CO)NC(=O)[C@H](CO)NC(=O)[C@@H](NC(=O)[C@H](CC(=O)O)NC(=O)[C@H](CO)NC(=O)[C@@H](NC(=O)[C@H](Cc1ccccc1)NC(=O)[C@@H](NC(=O)CNC(=O)[C@H](CCC(=O)O)NC(=O)[C@H](C)NC(=O)CCc1cnc[nH]1)[C@@H](C)O)[C@@H](C)O)C(C)C)C(=O)N[C@@H](C)C(=O)N[C@@H](Cc1c[nH]c2ccccc12)C(=O)N[C@@H](CC(C)C)C(=O)N[C@H](C(=O)N[C@@H](CCCNC(=N)N)C(=O)NCC(=O)N[C@@H](CCCNC(=N)N)C(=O)N[C@@H](CCCCNC(=O)COCCOCCNC(=O)COCCOCCNC(=O)CC[C@H](NC(=O)CCCCCCCCCCCCCCCCC(=O)O)C(=O)O)C(=O)NCC(=O)NCC(=O)N[C@@H](CO)C(=O)N[C@@H](CCCCNC(=O)[C@H](CCCCNC(=O)[C@H](CCCCNc1c(NCCCCCN(O)C(=O)CCC(=O)NCCCCCN(O)C(=O)CCC(=O)NCCCCCN(O)C(C)=O)c(=O)c1=O)Nc1c(NCCCCCN(O)C(=O)CCC(=O)NCCCCCN(O)C(=O)CCC(=O)NCCCCCN(O)C(C)=O)c(=O)c1=O)NC(=O)[C@H](CCCCNc1c(NCCCCCN(O)C(=O)CCC(=O)NCCCCCN(O)C(=O)CCC(=O)NCCCCCN(O)C(C)=O)c(=O)c1=O)Nc1c(NCCCCCN(O)C(=O)CCC(=O)NCCCCCN(O)C(=O)CCC(=O)NCCCCCN(O)C(C)=O)c(=O)c1=O)C(=O)O)C(C)C [zirconium-89 labelled]	ex vivo gamma counting	male Sprague-Dawley rat, knee	intravenous, 1 nmol, 24 h	–	tissue uptake	0.465 %ID/g
O=C1Nc2cc3[nH]nc(-c4ccncc4)c3cc2CN1Cc1ccccc1	item: Diarrhea	patients with advanced solid tumours	intravenous, dose not given	–	patients with TEAE	22%

Some of these lines once more:
Structure (SMILES)	test	system	setting	scale	endpoint	value
O=c1ccc2ncc(=O)n3c2n1C[C@H]3CN1CCC(NCc2cc3c(cn2)OCCC3)CC1	–	healthy human volunteers, urine	oral, 1500 mg, arithmetic mean, alone	–	AUC(0-24)	3870 µg·h/mL
